Earlier results as cited in several papers.
Numbered parts are unrelated; values within a part may stem from several laboratories. Numbers after ± are the reported error.
UniProt P18825, sequence (whole entry, looked up): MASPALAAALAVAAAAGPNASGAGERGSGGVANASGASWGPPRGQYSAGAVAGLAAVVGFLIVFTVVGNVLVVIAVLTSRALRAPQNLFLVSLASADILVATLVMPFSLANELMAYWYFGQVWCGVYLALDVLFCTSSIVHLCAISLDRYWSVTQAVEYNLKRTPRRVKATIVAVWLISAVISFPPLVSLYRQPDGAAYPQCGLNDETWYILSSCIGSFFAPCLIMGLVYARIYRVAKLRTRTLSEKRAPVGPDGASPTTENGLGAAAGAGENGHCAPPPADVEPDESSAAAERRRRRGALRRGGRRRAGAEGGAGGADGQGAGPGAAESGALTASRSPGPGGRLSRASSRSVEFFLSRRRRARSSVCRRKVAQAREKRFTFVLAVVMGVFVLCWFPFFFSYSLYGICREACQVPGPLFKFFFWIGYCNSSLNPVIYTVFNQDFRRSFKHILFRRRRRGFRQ

Sample 1
SMILES: CCCCCCCCNC(C)C(O)c1ccc(SC(C)C)cc1 (centres unmarked)
Cell line: MCF7
Technique: microarray
Concentration: concentration not given
Reference: DMSO
| assay | log2 fold change |
| --- | --- |
| measured: TSFM mRNA | 0.9 |
| measured: TBC1D17 mRNA | 1.25 |
| measured: TRIB1 mRNA | 2.33 |

Sample 2
Organism: Cryptosporidium parvum
Technique: high-throughput screen
Concentration: concentration not given
| Compound | activity |
| --- | --- |
| O=C(NCCN1CCOCC1)c1ccc(Cl)cc1 | inactive |
| CS(=O)(=O)c1ccc(C2=C(c3ccccc3)C(=O)OC2)cc1 | inactive |
| Cc1ccc(NC(=O)c2ccc(CN3CCN(C)CC3)cc2)cc1Nc1nccc(-c2cccnc2)n1 | inactive |
| COc1ccc(-c2oc3c(CC=C(C)C)c(O[C@@H]4O[C@H](CO)[C@@H](O)[C@H](O)[C@H]4O)cc(O)c3c(=O)c2O[C@@H]2O[C@@H](C)[C@H](O)[C@@H](O)[C@H]2O)cc1 | inactive |
| CC1=C(/C=C/C(C)=C/C=C/C(C)=C/C(=O)O)C(C)(C)CCC1 | inactive |
| NC(=O)c1cccnc1 | inactive |
| COc1ccc2[n-]c([S+]([O-])Cc3ncc(C)c(OC)c3C)nc2c1.COc1ccc2[n-]c([S+]([O-])Cc3ncc(C)c(OC)c3C)nc2c1.[Mg+2] (centres unmarked) | inactive |
| CCOC(=O)c1ncn2c1CN(C)C(=O)c1cc(F)ccc1-2 | inactive |
| Nc1nc(N)c2nc(-c3ccccc3)c(N)nc2n1 | inactive |
| O=C(O)Cc1ccccc1Nc1c(Cl)cccc1Cl | inactive |
| CCC(C)(C)N=C(NC#N)Nc1cccnc1 | inactive |
| CCCCC1=NC2(CCCC2)C(=O)N1Cc1ccc(-c2ccccc2-c2nnn[nH]2)cc1 | inactive |
| Cc1ccc(S(=O)(=O)NC(=O)NN2CCCCCC2)cc1 | inactive |
| CSc1ccc2c(c1)N(CCC1CCCCN1C)c1ccccc1S2 (centres unmarked) | inactive |
| CC1CNc2c(cccc2S(=O)(=O)N[C@@H](CCCNC(=N)N)C(=O)N2CC[C@@H](C)C[C@@H]2C(=O)O)C1 (some centres unmarked) | inactive |
| CCOC(=O)c1ccc(OC(=O)CCCCCN=C(N)N)cc1.CS(=O)(=O)O | inactive |
| CC(Cc1ccccc1)(NC(=O)CN)c1ccccc1.Cl (centres unmarked) | inactive |
| CN(C)CCN(Cc1ccccc1)c1ccccn1 | inactive |
| CC[C@@]1(O)C(=O)OCc2c1cc1n(c2=O)Cc2cc3c(CN(C)C)c(O)ccc3nc2-1 | inactive |
| CCCCNC(=O)NS(=O)(=O)c1ccc(C)cc1 | inactive |
| Cc1ccc(-c2cc(C(F)(F)F)nn2-c2ccc(S(N)(=O)=O)cc2)cc1 | inactive |
| CCCCC[C@H](O)/C=C/[C@H]1[C@H](O)CC(=O)[C@@H]1CCCCCCC(=O)O | inactive |
| N#Cc1ccc(C(c2ccc(C#N)cc2)n2cncn2)cc1 | inactive |
| Cc1onc(-c2c(Cl)cccc2Cl)c1C(=O)N[C@@H]1C(=O)N2[C@@H]1SC(C)(C)[C@@H]2C(=O)O | inactive |
| Clc1ccc2c(c1)C(N1CCNCC1)=Nc1ccccc1O2 | inactive |

Mixed results
KDR: Vascular endothelial growth factor receptor 2 (KDR, Homo sapiens, UniProt P35968)
UniProt P35968, sequence (whole entry, looked up): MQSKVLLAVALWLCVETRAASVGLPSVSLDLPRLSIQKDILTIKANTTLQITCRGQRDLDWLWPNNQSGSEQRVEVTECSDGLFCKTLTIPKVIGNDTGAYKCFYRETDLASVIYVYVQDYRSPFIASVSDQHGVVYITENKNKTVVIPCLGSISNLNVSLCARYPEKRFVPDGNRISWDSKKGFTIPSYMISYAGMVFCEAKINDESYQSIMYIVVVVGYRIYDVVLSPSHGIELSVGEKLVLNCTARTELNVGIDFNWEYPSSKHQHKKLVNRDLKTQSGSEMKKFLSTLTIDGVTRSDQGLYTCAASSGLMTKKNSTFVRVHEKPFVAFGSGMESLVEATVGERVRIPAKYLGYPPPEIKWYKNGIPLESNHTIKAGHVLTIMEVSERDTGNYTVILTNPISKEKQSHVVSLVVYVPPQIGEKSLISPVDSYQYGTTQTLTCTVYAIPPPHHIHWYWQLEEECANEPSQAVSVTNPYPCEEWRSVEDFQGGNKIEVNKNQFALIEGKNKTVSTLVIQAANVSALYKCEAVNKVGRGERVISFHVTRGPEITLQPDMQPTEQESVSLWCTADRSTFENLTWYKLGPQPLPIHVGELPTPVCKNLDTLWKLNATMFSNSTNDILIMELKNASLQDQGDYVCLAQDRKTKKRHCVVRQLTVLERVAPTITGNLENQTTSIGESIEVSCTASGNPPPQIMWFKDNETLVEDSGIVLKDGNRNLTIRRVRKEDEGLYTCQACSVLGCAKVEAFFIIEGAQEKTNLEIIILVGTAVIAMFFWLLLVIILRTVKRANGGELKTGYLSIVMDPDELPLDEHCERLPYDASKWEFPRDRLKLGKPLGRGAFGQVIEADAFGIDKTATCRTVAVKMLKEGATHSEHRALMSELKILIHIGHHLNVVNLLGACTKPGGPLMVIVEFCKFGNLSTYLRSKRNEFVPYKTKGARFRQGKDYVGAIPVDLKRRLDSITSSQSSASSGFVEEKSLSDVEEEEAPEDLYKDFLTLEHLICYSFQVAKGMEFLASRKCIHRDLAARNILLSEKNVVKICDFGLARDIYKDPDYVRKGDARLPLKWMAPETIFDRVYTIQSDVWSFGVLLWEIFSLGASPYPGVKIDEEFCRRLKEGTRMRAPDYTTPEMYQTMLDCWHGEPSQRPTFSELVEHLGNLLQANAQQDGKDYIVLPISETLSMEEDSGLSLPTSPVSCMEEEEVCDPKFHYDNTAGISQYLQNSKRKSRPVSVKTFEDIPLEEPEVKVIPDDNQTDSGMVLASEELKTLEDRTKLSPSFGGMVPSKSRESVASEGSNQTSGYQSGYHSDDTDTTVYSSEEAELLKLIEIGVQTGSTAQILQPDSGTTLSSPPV
| SMILES | tested on | assay | test system | conditions | endpoint | value |
| --- | --- | --- | --- | --- | --- | --- |
| CC(C)c1nc(CN(C)C(=O)N[C@H](C(=O)N[C@@H](Cc2ccccc2)C[C@H](O)[C@H](Cc2ccccc2)NC(=O)OCc2cncs2)C(C)C)cs1 | P-glycoprotein | substrate |  |  | Km | 0.13 µM |
| CN(C)C(=O)c1cc2cnc(Nc3ccc(N4CCNCC4)cn3)nc2n1C1CCCC1 |  |  | HR+/HER2- advanced breast cancer, progressed on endocrine therapy | added: fulvestrant | median PFS | 14.6 months |
| C[C@@H](c1ncncc1F)[C@](O)(Cn1cncn1)c1ccc(F)cc1F | P-glycoprotein | in vitro |  | concentration not given | inhibition | no inhibition |
| O=C1Oc2ccc3ccccc3c2C1c1c[nH]c2ccccc12 (centres unmarked) | COLO 320 ABCB1-overexpressing resistant |  |  | concentration not given | cytotoxicity | no effect |
| Cn1c(=O)c2c(ncn2C)n(C)c1=O |  | IAM chromatography |  |  | log kW IAM | 0.31 |
| CC(C)(O)c1cncc(-c2nc3ccc(F)cc3n2C2CC2)c1 | HTR2B | radioligand binding |  |  | IC50 | 5330 nM |
| Fc1ccc(-c2c3cccc(C(F)(F)F)c3nn2Cc2ccc(F)cc2Cl)cc1 | ABCA1 |  |  |  | EC50 | 540 nM |
| CCN1CCN(Cc2ccc(Nc3ncc(F)c(-c4cc(F)c5nc(C)n(C(C)C)c5c4)n3)nc2)CC1 |  |  | patients | dose not given, monotherapy | grade ≥3 anemia incidence | 4% |
| CN(CC(=O)Nc1ccc(F)c(F)c1F)C(=O)c1ccc2c(c1)OCCO2 | ABCA1 |  |  |  | EC50 | > 1000 nM |
| NC(=O)c1nnn(Cc2cc(Cl)c(C(=O)c3ccc(Cl)cc3)c(Cl)c2)c1N |  |  | human relapsed ovarian cancer | 6 months, single agent | disease stabilization rate | 31% |
| CN1CCN(c2ccc3nc(-c4c(N)c5ccccc5[nH]c4=O)[nH]c3c2)CC1 | KDR | inhibitor |  |  | IC50 | 42 nM |
| Cc1nc(N2CC[C@@H](O)C2)ncc1-c1cc(C(F)(F)F)cc2[nH]ncc12 | METAP2 (human) | enzyme activity |  | Mn(II) enzyme | IC50 | 7 nM |
| O=[N+]([O-])C1=Cc2cc(I)ccc2OC1C(F)(F)F (centres unmarked) | Alpha-2C adrenergic receptor (ADRA2C, Homo sapiens, UniProt P18825) |  |  |  | Ki | 2600 nM |
| COc1ccc([C@@H]2Sc3ccccc3N(CCN(C)C)C(=O)[C@@H]2OC(C)=O)cc1 |  | IAM chromatography |  |  | log kW IAM | 2.83 |
| CC(=O)O[C@@]12CO[C@@H]1C[C@H](O)[C@@]1(C)C(=O)[C@H](O)C3=C(C)[C@@H](OC(=O)[C@H](O)[C@@H](NC(=O)OC(C)(C)C)c4ccccc4)C[C@@](O)([C@@H](OC(=O)c4ccccc4)[C@H]21)C3(C)C | PC-3 | cell growth |  | 72 h | EC50 | 15 ± 4 nM |
| O=C1CC2(CCCC2)CC(=O)N1CCCCN1CCN(c2ncccn2)CC1 | dopamine transporter |  |  |  | IC50 | > 10000 nM |
| Cn1cncc1[C@@](N)(c1ccc(Cl)cc1)c1ccc2c(c1)c(-c1cccc(Cl)c1)cc(=O)n2C |  |  | human | 200 mg/m2 | AUC(0-inf) | 4840 ng·h/mL |
| CNC(=O)c1ccc(Nc2ncc(C(F)(F)F)c(NCc3nccnc3N(C)S(C)(=O)=O)n2)cc1 | ADORA3 | Cerep selectivity panel |  |  | Ki | 27 nM |
| COc1cc2c(cc1OC)C1CC(=O)C(CC(C)C)CN1CC2 (centres unmarked) |  |  | human |  | therapeutic concentration | 0.99 nM |
| O=C(O)c1[nH]c2ccccc2c1C1NCCc2ccccc21 (centres unmarked) | MRC-5 fibroblasts | cytotoxicity |  |  | IC50 | > 100000 nM |
| CCCc1nn(C)c2c(=O)[nH]c(-c3cc(S(=O)(=O)N4CCN(C)CC4)ccc3OCC)nc12 |  |  | healthy male humans | oral, 100 mg, geometric mean, given alone | AUC(0-inf) | 1420 ng·h/mL |
| Cc1ccc(F)c(NC(=O)Nc2ccc(Oc3ccnc4cc(C(=O)NCCCN5CCCC5)sc34)cc2F)c1 | KDR | inhibitor |  |  | IC50 | 3 nM |

Repeated from above (sample 2):
| Compound | activity |
| --- | --- |
| CS(=O)(=O)c1ccc(C2=C(c3ccccc3)C(=O)OC2)cc1 | inactive |
| Cc1ccc(NC(=O)c2ccc(CN3CCN(C)CC3)cc2)cc1Nc1nccc(-c2cccnc2)n1 | inactive |
| COc1ccc(-c2oc3c(CC=C(C)C)c(O[C@@H]4O[C@H](CO)[C@@H](O)[C@H](O)[C@H]4O)cc(O)c3c(=O)c2O[C@@H]2O[C@@H](C)[C@H](O)[C@@H](O)[C@H]2O)cc1 | inactive |
